Experimental data of several laboratories.
Lines come from different studies, so protocols differ. “And” joins repeats or separate records; there may be more than shown. ± gives the spread as reported.
qscR: qscR (Pseudomonas aeruginosa, UniProt G3XD77)
UniProt Q007T0, sequence (whole entry, looked up): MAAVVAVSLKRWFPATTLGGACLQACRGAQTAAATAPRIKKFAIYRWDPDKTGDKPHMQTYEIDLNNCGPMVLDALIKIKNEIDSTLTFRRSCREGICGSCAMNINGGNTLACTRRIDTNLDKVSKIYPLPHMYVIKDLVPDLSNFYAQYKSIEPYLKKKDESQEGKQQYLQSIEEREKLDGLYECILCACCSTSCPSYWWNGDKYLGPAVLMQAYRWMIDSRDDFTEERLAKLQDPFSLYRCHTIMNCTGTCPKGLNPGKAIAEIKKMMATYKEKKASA
UniProt P27361, sequence (whole entry, looked up): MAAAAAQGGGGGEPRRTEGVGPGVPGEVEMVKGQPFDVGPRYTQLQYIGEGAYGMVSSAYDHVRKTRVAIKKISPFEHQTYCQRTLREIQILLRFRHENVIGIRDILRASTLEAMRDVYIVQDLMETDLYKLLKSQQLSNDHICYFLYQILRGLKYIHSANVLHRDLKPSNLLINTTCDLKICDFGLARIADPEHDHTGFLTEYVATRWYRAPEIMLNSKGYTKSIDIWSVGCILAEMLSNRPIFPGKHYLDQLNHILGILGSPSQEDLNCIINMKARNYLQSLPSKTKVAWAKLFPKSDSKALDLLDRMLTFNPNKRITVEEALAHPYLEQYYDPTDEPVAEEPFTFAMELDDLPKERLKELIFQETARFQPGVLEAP
UniProt D0VWV4, sequence (whole entry, looked up): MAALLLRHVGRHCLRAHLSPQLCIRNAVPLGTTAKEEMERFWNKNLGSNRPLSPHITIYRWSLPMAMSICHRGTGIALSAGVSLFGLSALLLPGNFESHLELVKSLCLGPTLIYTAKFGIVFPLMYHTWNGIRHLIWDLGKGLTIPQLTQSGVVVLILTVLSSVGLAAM
UniProt A5GZW8, sequence (whole entry, looked up): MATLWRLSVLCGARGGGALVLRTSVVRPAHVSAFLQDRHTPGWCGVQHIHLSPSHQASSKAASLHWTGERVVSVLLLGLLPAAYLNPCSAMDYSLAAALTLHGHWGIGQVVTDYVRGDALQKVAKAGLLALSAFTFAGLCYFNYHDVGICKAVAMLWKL
UniProt P45983, sequence (whole entry, looked up): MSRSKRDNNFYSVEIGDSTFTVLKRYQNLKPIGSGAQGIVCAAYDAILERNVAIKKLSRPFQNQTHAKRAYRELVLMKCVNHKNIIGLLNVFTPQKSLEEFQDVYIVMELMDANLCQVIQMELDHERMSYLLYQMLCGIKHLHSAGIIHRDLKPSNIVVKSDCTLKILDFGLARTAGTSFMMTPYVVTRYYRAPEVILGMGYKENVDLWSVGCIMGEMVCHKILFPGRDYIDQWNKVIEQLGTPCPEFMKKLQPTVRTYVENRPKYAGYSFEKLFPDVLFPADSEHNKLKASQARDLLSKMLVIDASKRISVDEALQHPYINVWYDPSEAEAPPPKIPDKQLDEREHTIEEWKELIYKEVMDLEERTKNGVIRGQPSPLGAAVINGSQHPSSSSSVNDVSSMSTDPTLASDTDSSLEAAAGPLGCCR
UniProt Q8N6U8, sequence (whole entry, looked up): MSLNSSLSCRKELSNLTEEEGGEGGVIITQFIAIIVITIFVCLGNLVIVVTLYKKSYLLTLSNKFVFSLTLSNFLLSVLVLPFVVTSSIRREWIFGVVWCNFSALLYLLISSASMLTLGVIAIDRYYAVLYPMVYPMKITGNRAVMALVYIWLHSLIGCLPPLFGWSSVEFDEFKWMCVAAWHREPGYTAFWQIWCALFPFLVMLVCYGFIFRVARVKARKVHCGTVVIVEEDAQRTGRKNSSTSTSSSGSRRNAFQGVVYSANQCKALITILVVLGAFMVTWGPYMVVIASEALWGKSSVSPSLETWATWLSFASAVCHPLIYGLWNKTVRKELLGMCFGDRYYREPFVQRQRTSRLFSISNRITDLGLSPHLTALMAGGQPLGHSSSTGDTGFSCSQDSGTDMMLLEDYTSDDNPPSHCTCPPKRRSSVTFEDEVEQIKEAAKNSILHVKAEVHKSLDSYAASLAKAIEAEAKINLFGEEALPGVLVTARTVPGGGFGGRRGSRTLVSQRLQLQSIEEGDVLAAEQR
UniProt P00942, sequence (whole entry, unmodified, looked up): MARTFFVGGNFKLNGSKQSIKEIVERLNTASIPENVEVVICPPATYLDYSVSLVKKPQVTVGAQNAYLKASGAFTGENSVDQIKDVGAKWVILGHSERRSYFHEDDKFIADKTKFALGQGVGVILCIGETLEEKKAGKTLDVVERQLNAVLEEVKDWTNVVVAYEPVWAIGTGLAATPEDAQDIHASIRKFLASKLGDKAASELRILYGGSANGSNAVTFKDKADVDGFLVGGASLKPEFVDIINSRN
UniProt Q9Y6W6, sequence (whole entry, looked up): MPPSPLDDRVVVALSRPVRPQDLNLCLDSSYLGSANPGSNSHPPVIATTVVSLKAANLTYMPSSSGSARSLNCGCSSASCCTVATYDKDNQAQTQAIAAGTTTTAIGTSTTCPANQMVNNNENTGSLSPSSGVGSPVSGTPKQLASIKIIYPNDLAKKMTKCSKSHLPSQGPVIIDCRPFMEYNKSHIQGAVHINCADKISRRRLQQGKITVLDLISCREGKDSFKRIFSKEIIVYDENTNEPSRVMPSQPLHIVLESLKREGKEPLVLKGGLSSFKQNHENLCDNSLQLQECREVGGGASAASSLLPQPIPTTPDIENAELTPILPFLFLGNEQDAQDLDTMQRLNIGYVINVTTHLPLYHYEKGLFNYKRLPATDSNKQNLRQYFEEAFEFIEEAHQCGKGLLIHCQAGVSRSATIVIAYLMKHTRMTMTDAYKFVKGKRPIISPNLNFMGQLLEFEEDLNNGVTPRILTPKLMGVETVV
UniProt P50052, sequence (whole entry, looked up): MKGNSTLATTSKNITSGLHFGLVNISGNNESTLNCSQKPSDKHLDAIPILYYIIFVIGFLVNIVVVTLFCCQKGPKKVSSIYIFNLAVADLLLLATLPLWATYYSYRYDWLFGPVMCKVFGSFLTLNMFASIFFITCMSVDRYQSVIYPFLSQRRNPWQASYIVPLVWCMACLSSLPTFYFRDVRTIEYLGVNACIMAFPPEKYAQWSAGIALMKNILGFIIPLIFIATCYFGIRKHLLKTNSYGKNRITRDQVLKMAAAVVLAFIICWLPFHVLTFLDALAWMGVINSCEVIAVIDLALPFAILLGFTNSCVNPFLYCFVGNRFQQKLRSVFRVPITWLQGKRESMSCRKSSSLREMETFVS
UniProt O42275, sequence (whole entry, looked up): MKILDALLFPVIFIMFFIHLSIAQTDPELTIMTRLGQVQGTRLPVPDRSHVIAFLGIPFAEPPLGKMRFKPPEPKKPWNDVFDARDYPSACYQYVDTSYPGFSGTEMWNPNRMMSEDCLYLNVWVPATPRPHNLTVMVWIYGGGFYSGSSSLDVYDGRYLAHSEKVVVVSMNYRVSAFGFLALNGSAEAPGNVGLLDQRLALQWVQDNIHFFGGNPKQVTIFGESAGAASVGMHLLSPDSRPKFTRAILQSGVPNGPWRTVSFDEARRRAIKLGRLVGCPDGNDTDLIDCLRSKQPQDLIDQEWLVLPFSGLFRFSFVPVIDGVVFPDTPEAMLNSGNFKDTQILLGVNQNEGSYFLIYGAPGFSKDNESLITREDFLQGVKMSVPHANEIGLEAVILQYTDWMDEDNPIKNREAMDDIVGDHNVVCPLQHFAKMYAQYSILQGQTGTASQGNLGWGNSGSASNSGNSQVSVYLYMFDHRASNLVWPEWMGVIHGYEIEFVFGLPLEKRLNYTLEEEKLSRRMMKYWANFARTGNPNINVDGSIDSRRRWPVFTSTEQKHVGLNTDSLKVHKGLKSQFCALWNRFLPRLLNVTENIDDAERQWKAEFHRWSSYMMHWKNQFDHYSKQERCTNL
UniProt O14965, sequence (whole entry, looked up): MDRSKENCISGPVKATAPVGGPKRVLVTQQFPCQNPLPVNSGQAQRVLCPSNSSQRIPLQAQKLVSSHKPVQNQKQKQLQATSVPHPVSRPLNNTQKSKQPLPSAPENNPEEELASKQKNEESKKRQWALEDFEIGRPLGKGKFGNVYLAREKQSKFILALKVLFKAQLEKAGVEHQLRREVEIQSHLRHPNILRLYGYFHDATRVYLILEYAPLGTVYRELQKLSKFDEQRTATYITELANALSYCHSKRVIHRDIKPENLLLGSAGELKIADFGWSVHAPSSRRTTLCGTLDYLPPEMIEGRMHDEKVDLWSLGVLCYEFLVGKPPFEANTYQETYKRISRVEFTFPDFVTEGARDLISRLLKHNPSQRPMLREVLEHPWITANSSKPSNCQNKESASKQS
UniProt Q969F8, sequence (whole entry, looked up): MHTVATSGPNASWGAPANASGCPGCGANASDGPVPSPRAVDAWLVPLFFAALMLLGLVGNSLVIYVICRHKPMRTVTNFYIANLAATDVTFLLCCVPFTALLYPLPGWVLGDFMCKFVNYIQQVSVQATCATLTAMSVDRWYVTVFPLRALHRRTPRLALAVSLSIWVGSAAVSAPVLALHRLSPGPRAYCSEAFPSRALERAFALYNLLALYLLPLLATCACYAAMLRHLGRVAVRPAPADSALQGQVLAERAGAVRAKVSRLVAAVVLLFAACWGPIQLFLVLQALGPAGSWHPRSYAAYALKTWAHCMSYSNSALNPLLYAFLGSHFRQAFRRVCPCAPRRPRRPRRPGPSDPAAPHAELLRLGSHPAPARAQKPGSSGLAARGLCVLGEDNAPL
UniProt Q9NY57, sequence (whole entry, looked up): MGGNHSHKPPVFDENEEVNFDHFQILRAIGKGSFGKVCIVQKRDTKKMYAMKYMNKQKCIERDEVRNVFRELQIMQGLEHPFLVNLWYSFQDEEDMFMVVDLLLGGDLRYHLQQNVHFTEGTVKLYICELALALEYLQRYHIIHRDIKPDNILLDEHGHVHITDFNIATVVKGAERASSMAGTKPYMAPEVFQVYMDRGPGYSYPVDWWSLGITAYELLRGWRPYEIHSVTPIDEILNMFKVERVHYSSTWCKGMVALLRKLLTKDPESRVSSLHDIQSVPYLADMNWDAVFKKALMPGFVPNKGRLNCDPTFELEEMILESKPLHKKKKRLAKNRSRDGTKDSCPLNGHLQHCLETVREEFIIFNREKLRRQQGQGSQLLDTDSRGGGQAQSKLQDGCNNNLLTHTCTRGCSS

Compound | target | assay | system | conditions | scale | measurement | value
Nc1ncc(-c2nc(N3CCOCC3)nc(N3CCOCC3)n2)c(C(F)F)n1 | Serine/threonine-protein kinase 32B (STK32B, Homo sapiens, UniProt Q9NY57) | KINOMEscan |  | 10 µM |  | remaining binding | 90%
COc1cc(N)c(Cl)cc1C(=O)NC1CN2CCC1CC2 (stereo not shown) | G-protein coupled receptor 161 (GPR161, Homo sapiens, UniProt Q8N6U8) | β-arrestin recruitment, TANGO luminescence, item: GPR161 |  | concentration not given | baseline: basal luminescence | log2 fold change | 0.03
CCCCCCCCCC(=O)CC(=O)N[C@H]1CCOC1=O | qscR | ligand, differential scanning fluorimetry |  | ligand complex |  | melting temperature | 57.1 °C
CCCc1csc2c1-c1nc(SCC(=O)C(C)(C)C)ncc1CC2 | Dual specificity protein phosphatase 10, catalytic domain (Homo sapiens, UniProt Q9Y6W6) | X-ray co-crystal structure |  | concentration not given |  | active site volume | 48.3 ± 2.9 Å³
Cc1cc(C)n2c1C=C1C=CC(CCC(=O)Nc3ccc(OCC(=O)N[C@@H]4C(=O)N5[C@@H]4SC(C)(C)[C@@H]5C(=O)[O-])cc3)=[N+]1[B-]2(F)F.[Na+] | Penicillin-binding protein 2a (pbp2a, Streptococcus pneumoniae, UniProt Q8DNB6) | inhibitor | whole cells | 600 nM, six slowest PBPs |  | kobs | 0.0022 s⁻¹
CCOC(=O)COc1ccc2c(=O)c3ccccc3oc2c1 | Acetylcholinesterase (ache, Electrophorus electricus, UniProt O42275) | enzyme activity |  | 1.68 µM, with: substrate 1.73 mM | higher = faster reaction | reaction velocity | 0.0018 a.u.
CN(C(=O)n1cnc(-c2ccc[n+]([O-])c2)c1)C1CCCCC1 | Type-2 angiotensin II receptor (AGTR2, Homo sapiens, UniProt P50052) | radioligand binding, inhibitor |  | 10 µM |  | inhibition | -7%
COc1ccc(N2C(=O)N(c3c(C)cccc3Cl)Cc3cnc(Nc4ccc(C5CCN(C)CC5)cc4OC)nc32)nc1 | Serine/threonine-protein kinase pim-2 (PIM2, Homo sapiens, UniProt Q9P1W9) | kinase activity |  | 0.5 µM |  | inhibition | 2.44%
[2H]c1c([2H])c([C@]2([2H])CCCN2C(=O)C(C)(C)Oc2ccc3cn[nH]c3c2)c([2H])c([2H])c1C([2H])([2H])[2H] | Casein kinase I isoform gamma-2 (CSNK1G2, Homo sapiens, UniProt P78368) | KINOMEscan |  | 1 µM | baseline: DMSO control | remaining binding | 64%
C=C(CN(C(=O)c1c(C(F)F)nn(C)c1F)C1CC1)c1ccc(Cl)cc1Cl | SDHD/SDHC/SDHB (Sus scrofa, UniProt A5GZW8+D0VWV4+Q007T0) | enzyme activity, inhibitor, DCIP reduction | pig | 0.06 µM, with: DCIP 120 µM |  | reaction velocity | 0.0271 µM/s and 0.0259 µM/s and 0.0258 µM/s
CC12CCC(CC1)C(C)(C)O2 | 1,8-cineole 2-endo-monooxygenase (cinA, Citrobacter braakii, UniProt Q8VQF6) | product per NADPH consumed, substrate, GC-MS |  | wild-type enzyme variant |  | coupling efficiency | 97.8%
COC(=O)[C@@]1(O)C[C@H]2O[C@]1(C)n1c3ccccc3c3c4c(c5c6ccccc6n2c5c31)C(=O)NC4 | Mitogen-activated protein kinase 3 (MAPK3, Homo sapiens, UniProt P27361) | ADP-Glo |  | 2.91 µM, with: MBP substrate |  | kinase activity | 102% and 126% and 94.3%
O=C(O)Cc1c[nH]cn1 | Sodium- and chloride-dependent taurine transporter (SLC6A6, Homo sapiens, UniProt P31641, Y138A) | binding, microscale thermophoresis |  | 7.81 µM, room temperature, with: 50 nM labelled protein | higher = more binding | normalised MST signal | 0.0586
Nc1ncnc2c1ncn2[C@@H]1O[C@H](COP(=O)(O)O)[C@@H](O)[C@H]1O | Thermonuclease (nuc, Staphylococcus aureus, UniProt P00644) | ligand-coupled folding kinetics |  | pH 7.0, 22 °C, 2.7 M urea |  | ligand concentration at rate minimum | ~1 mM
C[C@H]1CN(c2n[nH]c3nc(N[C@H]4CC[C@H](NS(=O)(=O)CCC(F)(F)F)CC4)ncc23)CCO1 | Paxillin (PXN, Homo sapiens, UniProt P49023) | competitor, Kinobeads competition, item: PXN | human cell extract | 0.032 µM | baseline: vehicle | relative abundance | 0.94
Clc1cc2c(cc1Cl)Oc1cc(Cl)c(Cl)cc1O2 | Uncharacterized protein (Takifugu rubripes, UniProt Q4JHL4) | reporter gene, agonist, dual-luciferase | COS-7 | 24 h |  | EC80 | 3.94 ± 2.53 nM
CN[C@@H]1C[C@H]2O[C@@](C)([C@@H]1OC)n1c3ccccc3c3c4c(c5c6ccccc6n2c5c31)C(=O)NC4 | CDC2-like kinase 1 (Trypanosoma brucei brucei, UniProt Q382U0) | kinase activity, ADP-Glo |  | 0.3125 µM |  | remaining activity | 27.2%

Compound | target | assay | system | conditions | scale | measurement | value
O=C(Nc1cccnn1)N1CCC(=Cc2cccc(Oc3ccc(C(F)(F)F)cn3)c2)CC1 | GABAB1B receptor, human | binding |  | 10 µM, with: [3H]CGP-54626 |  | inhibition | 11%
O=c1c(O)c(N2CCN(Cc3ccc(Br)cc3F)CC2)oc2ccccc12 | Mothers against decapentaplegic homolog 3 (Homo sapiens, UniProt P84022, K41A) | ITC |  | concentration not given |  | binding | no binding
COc1cc(O)cc(/C=C/c2ccc(O)cc2)c1 | O-methyltransferase (Sorghum bicolor, UniProt A0A1B6PFV1) |  |  | concentration not given, with: SAH+ |  | ΔG of binding | -9.4 kcal/mol
O=C(c1ccc(Cl)cc1)N1CCN2C(=O)N(OC(=O)N3CCOc4ccccc43)C(=O)C2C1 (stereo not shown) | Androgen-induced gene 1 protein (Homo sapiens, UniProt Q9NVV5) | enzyme activity, inhibitor, MS-based ABPP | SW-620 in situ | 10 µM, 2 h, 37 °C | baseline: compound over DMSO, lower = stronger inhibition | median ratio | 0.72
CN1CCN(c2cc(-c3ccncc3)c(-c3ccc4ccccc4c3)nn2)CC1 | KiSS-1 receptor (KISS1R, Homo sapiens, UniProt Q969F8) | agonist, FLIPR |  | 12.5 µM |  | activation | 6.1%
CN(C)C(=O)c1cc2cnc(Nc3ccc(C(=O)NCCCCCCOc4cccc5c4C(=O)N(C4CCC(=O)NC4=O)C5=O)cc3)nc2n1C1CCCC1 (stereo not shown) | Aurora kinase A (AURKA, Homo sapiens, UniProt O14965) | degrader | MCF7 |  |  | Dmax | 94%
N#C[C@@H](O[C@@H]1O[C@H](CO)[C@@H](O)[C@H](O)[C@H]1O)c1ccc(O)cc1 | BGLU7 (Oryza sativa, UniProt Q75I93) | substrate |  |  |  | Km | 6.15 ± 0.81 mM
CO/N=C(\C(=O)N[C@@H]1C(=O)N2C(C(=O)O)=C(CSc3nc(=O)c(=O)[nH]n3C)CS[C@H]12)c1csc(N)n1 | Penicillin-binding protein 2X (Streptococcus pneumoniae R6, UniProt P59676) | inhibitor | Streptococcus pneumoniae |  |  | kinact/KI | 30000 ± 7800 M⁻¹ s⁻¹
COc1cc2c(NC3CCN(C)CC3)cc(-c3ccc(C)o3)nc2cc1OCCCN1CCCC1 | DNA (cytosine-5)-methyltransferase 1 (DNMT1, Homo sapiens, UniProt P26358) | enzyme activity |  | 411.52 nM |  | inhibition | -9.33%
O=C[C@H](O)COP(=O)(O)O | TPI1 (Saccharomyces cerevisiae, UniProt P00942, Y208F) | substrate, GPDH/NADH-coupled |  | pH 5.7, 25 °C |  | Km | ~18 mM
CC(=O)C(c1ccccc1)c1ccccc1 | Oxysterols receptor LXR-alpha (NR1H3, Homo sapiens, UniProt Q13133) |  |  | concentration not given |  | activity | inactive
CN1CCCC(=O)C1 | spuC (Halomonas elongata, UniProt E1V913) | substrate |  |  |  | Km | 16 ± 2 mM
O=C(Nc1nncs1)C(F)(F)Cl | Mitogen-activated protein kinase 8 (MAPK8, Homo sapiens, UniProt P45983) | binding, isothermal titration calorimetry |  |  |  | association constant | 5370 M⁻¹ and 5390 M⁻¹
O=C(CCCOc1ccc(Cl)cc1)NC1CCOC1=O (stereo not shown) | qscR | ligand, differential scanning fluorimetry |  | ligand complex |  | melting temperature | 52.9 °C
Nc1nc2c(ncn2[C@@H]2O[C@@H]3COP(=O)(O)O[C@H]4[C@@H](O)[C@H](n5cnc6c(=O)[nH]c(N)nc65)O[C@@H]4COP(=O)(O)O[C@H]3[C@H]2O)c(=O)[nH]1 | Cell cycle histidine kinase CckA, G318A; cytoplasmic region (Caulobacter vibrioides, UniProt Q9X688, G318A) | binding, ITC |  | 12 °C, with: ADP 5 mM |  | -TΔS | -6.7 kcal/mol
CN(C(=O)n1cnc(-c2ccc[n+]([O-])c2)c1)C1CCCCC1 | Monoacylglycerol lipase ABHD6 (Abhd6, Rattus norvegicus, UniProt Q5XI64) | enzyme activity, ABPP | rat, brain | oral, 100 mg/kg/day, 1 days | baseline: vehicle | fold change | -19.3
COc1cc(Nc2ncc(F)c(Nc3ccc4c(n3)NC(=O)C(C)(C)O4)n2)cc(OC)c1OC | Casein kinase I isoform epsilon (CSNK1E, Homo sapiens, UniProt P49674) | KINOMEscan |  | 10 µM |  | inhibition | 0%

Repeated from above:
Compound | target | assay | system | conditions | scale | measurement | value
O=C[C@H](O)COP(=O)(O)O | TPI1 (Saccharomyces cerevisiae, UniProt P00942, Y208F) | substrate, GPDH/NADH-coupled |  | pH 5.7, 25 °C |  | Km | ~18 mM
CC(=O)C(c1ccccc1)c1ccccc1 | Oxysterols receptor LXR-alpha (NR1H3, Homo sapiens, UniProt Q13133) |  |  | concentration not given |  | activity | inactive
CN1CCCC(=O)C1 | spuC (Halomonas elongata, UniProt E1V913) | substrate |  |  |  | Km | 16 ± 2 mM
O=C(Nc1nncs1)C(F)(F)Cl | Mitogen-activated protein kinase 8 (MAPK8, Homo sapiens, UniProt P45983) | binding, isothermal titration calorimetry |  |  |  | association constant | 5370 M⁻¹ and 5390 M⁻¹
